Measurements of several laboratories.
Compare with care: the assays were run in different laboratories. ± gives the spread as reported.
MET: Hepatocyte growth factor receptor (MET, Homo sapiens, UniProt P08581)
MET M1250T: Hepatocyte growth factor receptor (MET, Homo sapiens, UniProt P08581, M1250T)
UCHL1: Ubiquitin carboxyl-terminal hydrolase isozyme L1 (UCHL1, Homo sapiens, UniProt P09936)
UniProt P09936, sequence (whole entry, looked up): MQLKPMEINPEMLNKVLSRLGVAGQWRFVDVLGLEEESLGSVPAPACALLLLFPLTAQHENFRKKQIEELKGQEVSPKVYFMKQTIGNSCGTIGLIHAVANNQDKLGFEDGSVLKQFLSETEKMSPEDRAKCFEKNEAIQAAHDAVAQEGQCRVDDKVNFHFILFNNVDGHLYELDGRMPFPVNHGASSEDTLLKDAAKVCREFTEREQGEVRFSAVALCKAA

Compound | target | test | setting | scale | endpoint | value
COc1ccc(F)cc1C(=O)NCc1ccc(-c2nn([C@@H](C)C(F)(F)F)c(N)c2C(N)=O)cc1 | MET |  | 1000 nM, with: ATP at Km |  | remaining activity | 83.8 ± 6%
C1=C/COCc2cc(ccc2OCCN2CCCC2)Nc2nccc(n2)-c2cccc(c2)COC/1 | Hepatocyte growth factor receptor (MET, Homo sapiens, UniProt P08581, Y1235D) |  | concentration not given | reference: untreated control | remaining activity | 100%
O=C(NC1CCC1)c1ccc2nc(-c3cccc(NS(=O)(=O)NCCN4CCCCC4)c3)cn2c1 | MET M1250T | enzyme activity | 10 µM |  | remaining activity | 100%
Cc1[nH]c(/C=C2\C(=O)Nc3ccc(F)cc32)c(C)c1C(=O)N[C@H]1CCN(C(=O)N(C)C)C1 | MET | kinase activity, inhibitor | 1 µM | reference: no-compound control | remaining activity | 78%
CCCOc1ccc(OC)c(F)c1C(=O)c1ccc(C(=O)N[C@@H]2CNC[C@H]2NC(=O)c2ccc3[nH]ncc3c2)cc1 | MET M1250T | enzyme activity | 10 µM |  | remaining activity | 76%
COc1cc(N2CCN(C)CC2)ccc1Nc1nc(N)n(C(=O)NCc2ccccc2S(=O)(=O)C(C)C)n1 | MET M1250T | enzyme activity | 10 µM | reference: control | remaining activity | 20%
CCN(CC)c1ccc(C2=NNC(=O)CC2C)cc1[N+](=O)[O-] (stereo not shown) | MET | enzyme activity, inhibitor | 10 µM | reference: vehicle | remaining activity | 84%
CC(Cl)C(=O)N1CCC(N(CC(F)(F)F)S(C)(=O)=O)CC1 (stereo not shown) | UCHL1 | covalent, intact protein LC-MS | 12.5 µM |  | labelling | 18.1%
COc1cc(N2CCN(C)CC2)ccc1Nc1nc(N)n(C(=S)NCc2c(Cl)cccc2Cl)n1 | MET M1250T | enzyme activity | 10 µM | reference: control | remaining activity | 0%
CNC(=O)C(C#N)=Cc1c(Oc2ccc(Cl)cc2)nc2ccccn2c1=O | UCHL1 | covalent, intact protein LC-MS | 12.5 µM |  | labelling | 12.3%
COc1cc(-c2cncc3c2CN(C)Cc2cc(N4CCNCC4)ccc2-3)cc(OC)c1OC | MET M1250T | kinase activity | 1 µM, with: ATP 10 µM | reference: DMSO control | remaining activity | 86%
COc1cc(N2CCN(C)CC2)ccc1Nc1nc(N)n(C(=O)NCc2c(Cl)cccc2Cl)n1 | MET | enzyme activity | 10 µM | reference: control | remaining activity | 7.6%
C=CC(=O)N1CCC([C@@H]2CCNc3c(C(N)=O)c(-c4ccc(Oc5ccccc5)cc4)nn32)CC1 | MET | kinase activity, inhibitor, HotSpot radiometric | 100 nM, with: ATP 10 µM |  | remaining activity | 66.2%

For quick reference, copied from above:
Compound | target | test | setting | scale | endpoint | value
CNC(=O)C(C#N)=Cc1c(Oc2ccc(Cl)cc2)nc2ccccn2c1=O | UCHL1 | covalent, intact protein LC-MS | 12.5 µM |  | labelling | 12.3%
COc1cc(-c2cncc3c2CN(C)Cc2cc(N4CCNCC4)ccc2-3)cc(OC)c1OC | MET M1250T | kinase activity | 1 µM, with: ATP 10 µM | reference: DMSO control | remaining activity | 86%
